{"data": "Measurements of several laboratories", "cell line": "SNB-19", "technique": "SRB", "note": "Protocols differ between the studies behind these lines."}
{"Compound": "O=C1Nc2ccccc2/C1=N\\Nc1nnc2n1N=C(c1ccc(Cl)cc1)CS2", "effect on": "cell growth or viability", "tested at": "10 µM", "endpoint": "inhibition", "result": "10%"}
{"Compound": "CC(=O)OC[C@H]1O[C@@H](Sc2sc(C(=O)c3ccc(C)cc3)c(N)c2-c2nc3ccccc3s2)[C@H](OC(C)=O)[C@@H](OC(C)=O)[C@@H]1OC(C)=O", "tested at": "10 µM", "time": "48 h", "relative to": "untreated", "endpoint": "growth", "result": "74.4%"}
{"Compound": "CC(=C(c1ccc(O)cc1)c1ccc(Cl)cc1)c1ccc(Cl)cc1", "effect on": "cell growth or viability", "endpoint": "GI50", "result": "960 nM"}
{"Compound": "CC(=O)c1cccc(NC2C(N)C(NC(=O)N(C)C)(C(C)O)C(O)C2(O)COC(=O)c2c(C)cccc2O)c1 (stereo not drawn)", "effect on": "cell growth or viability", "endpoint": "GI50", "result": "520 nM"}
{"Compound": "CC(=O)OC[C@H]1O[C@@H](Sc2sc(C(=O)c3ccc(Br)cc3)c(N)c2-c2nc3ccccc3s2)[C@H](OC(C)=O)[C@@H](OC(C)=O)[C@@H]1OC(C)=O", "tested at": "10 µM", "time": "48 h", "relative to": "untreated", "endpoint": "growth", "result": "75.2%"}
{"Compound": "CC(=O)OCC1(O)C(Nc2cccc(C(C)=O)c2)C(N)C(NC(=O)N(C)C)(C(C)OC(C)=O)C1(C)O (stereo not drawn)", "effect on": "cell growth or viability", "endpoint": "GI50", "result": "570 nM"}
{"Compound": "CC/C=C\\C/C=C\\C/C=C\\C/C=C\\C/C=C\\C/C=C\\CCC(=O)Nc1ccn(C2OC(CO)C(O)C2(F)F)c(=O)n1 (stereo not drawn)", "effect on": "cell growth or viability", "endpoint": "GI50", "result": "22.3 nM"}
{"Compound": "CC(Cc1ccc(Cl)cc1)=C(c1ccc(Cl)cc1)c1ccc(OCCN(C)C)cc1", "effect on": "cell growth or viability", "endpoint": "GI50", "result": "5040 nM"}
{"Compound": "COc1ccc(C2=Nn3c(NN=C4C(=O)N(C)c5ccc(Br)cc54)nnc3SC2)cc1", "effect on": "cell growth or viability", "tested at": "10 µM", "endpoint": "inhibition", "result": "18%"}
{"note": "Excerpt of the above:"}
{"Compound": "CC(=O)OC[C@H]1O[C@@H](Sc2sc(C(=O)c3ccc(Br)cc3)c(N)c2-c2nc3ccccc3s2)[C@H](OC(C)=O)[C@@H](OC(C)=O)[C@@H]1OC(C)=O", "tested at": "10 µM", "time": "48 h", "relative to": "untreated", "endpoint": "growth", "result": "75.2%"}
